Assay results gathered from unrelated publications.
Parts stem from different laboratories: compare values within a part only. Several values in a cell are separate wells, animals, samples, runs or records.
UniProt Q05397, sequence (whole entry, looked up): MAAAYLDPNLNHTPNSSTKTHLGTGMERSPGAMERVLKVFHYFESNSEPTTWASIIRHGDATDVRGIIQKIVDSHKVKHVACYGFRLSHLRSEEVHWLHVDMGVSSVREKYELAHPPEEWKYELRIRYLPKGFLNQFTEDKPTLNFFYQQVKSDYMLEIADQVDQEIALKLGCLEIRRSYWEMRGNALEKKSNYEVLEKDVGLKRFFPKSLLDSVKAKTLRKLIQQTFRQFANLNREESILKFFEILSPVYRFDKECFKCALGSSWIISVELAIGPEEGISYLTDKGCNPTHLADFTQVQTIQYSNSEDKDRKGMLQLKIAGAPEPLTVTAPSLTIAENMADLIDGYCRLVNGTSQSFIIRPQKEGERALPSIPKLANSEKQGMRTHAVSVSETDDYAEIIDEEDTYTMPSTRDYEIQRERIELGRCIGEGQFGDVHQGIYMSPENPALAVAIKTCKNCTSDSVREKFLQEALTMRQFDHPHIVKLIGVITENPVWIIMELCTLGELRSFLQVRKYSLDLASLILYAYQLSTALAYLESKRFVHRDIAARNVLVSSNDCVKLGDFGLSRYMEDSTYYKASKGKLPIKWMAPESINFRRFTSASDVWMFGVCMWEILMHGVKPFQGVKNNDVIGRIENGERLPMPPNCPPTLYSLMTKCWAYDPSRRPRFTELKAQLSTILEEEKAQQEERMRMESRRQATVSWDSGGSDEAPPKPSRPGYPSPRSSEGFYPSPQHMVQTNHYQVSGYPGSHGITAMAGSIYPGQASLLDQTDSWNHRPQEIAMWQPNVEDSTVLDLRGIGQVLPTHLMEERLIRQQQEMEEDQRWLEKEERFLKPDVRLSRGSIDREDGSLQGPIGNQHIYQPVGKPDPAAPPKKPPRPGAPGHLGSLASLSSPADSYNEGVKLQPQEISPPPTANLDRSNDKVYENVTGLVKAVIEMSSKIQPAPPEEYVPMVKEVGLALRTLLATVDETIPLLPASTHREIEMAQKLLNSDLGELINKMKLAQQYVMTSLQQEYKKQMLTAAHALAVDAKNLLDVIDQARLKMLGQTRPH
UniProt Q96GD4, sequence (whole entry, looked up): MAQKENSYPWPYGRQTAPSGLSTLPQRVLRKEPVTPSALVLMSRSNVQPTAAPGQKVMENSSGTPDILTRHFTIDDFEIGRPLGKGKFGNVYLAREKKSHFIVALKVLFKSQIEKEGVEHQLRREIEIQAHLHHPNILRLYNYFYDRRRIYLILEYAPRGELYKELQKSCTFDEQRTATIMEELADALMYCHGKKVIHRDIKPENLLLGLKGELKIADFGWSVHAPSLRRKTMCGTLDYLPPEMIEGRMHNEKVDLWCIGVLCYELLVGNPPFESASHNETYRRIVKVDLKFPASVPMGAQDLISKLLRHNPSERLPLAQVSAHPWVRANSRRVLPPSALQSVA
UniProt P78362, sequence (whole entry, looked up): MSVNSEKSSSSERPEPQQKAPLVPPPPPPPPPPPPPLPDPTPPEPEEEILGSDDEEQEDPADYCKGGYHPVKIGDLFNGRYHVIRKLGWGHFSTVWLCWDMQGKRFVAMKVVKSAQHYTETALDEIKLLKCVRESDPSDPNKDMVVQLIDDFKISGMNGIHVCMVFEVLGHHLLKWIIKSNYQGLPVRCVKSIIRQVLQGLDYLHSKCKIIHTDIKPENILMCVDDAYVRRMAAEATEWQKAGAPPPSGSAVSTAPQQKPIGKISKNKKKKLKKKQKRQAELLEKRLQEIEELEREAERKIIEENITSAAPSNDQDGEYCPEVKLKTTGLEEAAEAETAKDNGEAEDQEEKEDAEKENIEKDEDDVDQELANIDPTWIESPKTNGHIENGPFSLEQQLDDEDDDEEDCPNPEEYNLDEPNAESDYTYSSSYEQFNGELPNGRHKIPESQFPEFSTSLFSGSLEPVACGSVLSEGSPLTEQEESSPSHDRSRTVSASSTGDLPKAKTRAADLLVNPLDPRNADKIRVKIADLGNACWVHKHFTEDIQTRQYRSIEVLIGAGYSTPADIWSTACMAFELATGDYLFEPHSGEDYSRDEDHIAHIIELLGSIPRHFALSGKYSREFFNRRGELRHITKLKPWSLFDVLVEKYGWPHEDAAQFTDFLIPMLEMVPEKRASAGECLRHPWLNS
UniProt P43403, sequence (whole entry, looked up): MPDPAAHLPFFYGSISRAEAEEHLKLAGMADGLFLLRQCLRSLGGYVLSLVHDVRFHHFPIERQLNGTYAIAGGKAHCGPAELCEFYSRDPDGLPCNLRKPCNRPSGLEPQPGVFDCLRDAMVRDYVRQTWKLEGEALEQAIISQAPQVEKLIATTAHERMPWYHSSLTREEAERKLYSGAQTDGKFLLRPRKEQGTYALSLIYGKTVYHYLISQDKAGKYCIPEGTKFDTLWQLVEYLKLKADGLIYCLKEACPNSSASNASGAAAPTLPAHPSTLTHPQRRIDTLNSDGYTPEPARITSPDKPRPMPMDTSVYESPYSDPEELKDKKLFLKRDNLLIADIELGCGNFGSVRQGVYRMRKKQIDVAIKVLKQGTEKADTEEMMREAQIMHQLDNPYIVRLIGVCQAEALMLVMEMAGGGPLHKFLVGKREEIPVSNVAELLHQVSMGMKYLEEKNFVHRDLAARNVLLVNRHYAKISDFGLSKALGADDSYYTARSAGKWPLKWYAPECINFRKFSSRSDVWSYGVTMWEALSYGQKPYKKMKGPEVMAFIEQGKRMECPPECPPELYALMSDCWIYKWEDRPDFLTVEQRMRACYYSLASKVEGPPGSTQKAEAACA
UniProt Q8TF76, sequence (whole entry, looked up): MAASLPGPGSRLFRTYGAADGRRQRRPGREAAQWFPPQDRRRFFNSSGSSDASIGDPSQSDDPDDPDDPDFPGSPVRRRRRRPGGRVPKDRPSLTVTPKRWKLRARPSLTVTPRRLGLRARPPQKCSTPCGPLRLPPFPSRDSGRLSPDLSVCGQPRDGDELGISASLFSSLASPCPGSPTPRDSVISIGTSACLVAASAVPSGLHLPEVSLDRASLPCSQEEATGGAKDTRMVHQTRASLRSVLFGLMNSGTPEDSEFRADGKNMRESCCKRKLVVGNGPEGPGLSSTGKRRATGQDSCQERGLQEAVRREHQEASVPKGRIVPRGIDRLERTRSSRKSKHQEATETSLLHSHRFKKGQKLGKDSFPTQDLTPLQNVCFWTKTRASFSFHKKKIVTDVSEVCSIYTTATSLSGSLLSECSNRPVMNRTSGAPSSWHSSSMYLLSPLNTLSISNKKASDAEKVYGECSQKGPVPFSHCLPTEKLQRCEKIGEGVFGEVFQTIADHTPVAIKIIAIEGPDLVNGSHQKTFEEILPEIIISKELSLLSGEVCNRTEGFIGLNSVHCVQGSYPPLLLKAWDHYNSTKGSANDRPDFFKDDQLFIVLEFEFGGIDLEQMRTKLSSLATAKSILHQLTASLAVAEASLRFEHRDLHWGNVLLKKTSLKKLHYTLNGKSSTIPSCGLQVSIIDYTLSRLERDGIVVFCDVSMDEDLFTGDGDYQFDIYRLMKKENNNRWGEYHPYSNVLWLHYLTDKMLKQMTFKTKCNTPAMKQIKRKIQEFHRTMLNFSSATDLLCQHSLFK
UniProt Q00534, sequence (whole entry, looked up): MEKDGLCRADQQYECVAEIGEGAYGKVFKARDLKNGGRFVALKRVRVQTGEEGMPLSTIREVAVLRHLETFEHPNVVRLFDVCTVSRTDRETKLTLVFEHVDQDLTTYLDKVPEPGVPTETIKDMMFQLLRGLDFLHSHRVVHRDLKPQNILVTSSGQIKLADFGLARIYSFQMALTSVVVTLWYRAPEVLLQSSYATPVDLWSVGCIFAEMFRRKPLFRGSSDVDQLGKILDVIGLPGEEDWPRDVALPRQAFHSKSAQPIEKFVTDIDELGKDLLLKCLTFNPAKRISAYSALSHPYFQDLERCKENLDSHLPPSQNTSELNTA
UniProt Q13188, sequence (whole entry, looked up): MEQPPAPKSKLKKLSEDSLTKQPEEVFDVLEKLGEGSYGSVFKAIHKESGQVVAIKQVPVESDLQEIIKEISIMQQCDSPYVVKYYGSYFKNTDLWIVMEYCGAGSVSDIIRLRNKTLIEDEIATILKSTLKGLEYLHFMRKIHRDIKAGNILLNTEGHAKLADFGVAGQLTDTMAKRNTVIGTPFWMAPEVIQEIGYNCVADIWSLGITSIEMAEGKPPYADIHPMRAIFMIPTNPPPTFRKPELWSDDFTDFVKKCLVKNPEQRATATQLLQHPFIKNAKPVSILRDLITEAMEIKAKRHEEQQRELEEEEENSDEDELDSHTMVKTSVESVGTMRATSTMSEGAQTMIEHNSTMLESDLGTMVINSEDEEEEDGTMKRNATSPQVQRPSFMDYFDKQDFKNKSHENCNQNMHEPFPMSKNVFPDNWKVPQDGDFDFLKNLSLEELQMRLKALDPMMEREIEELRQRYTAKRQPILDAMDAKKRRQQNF

Series 1 — Compound: c1ccc2c(-c3ccncc3)c[nH]c2c1; effect on: enzyme activity; mode: inhibitor; concentration: 0.5 µM; reference: control; quantity: remaining activity
Cyclin-dependent kinase 6, with cyclin D1 (CDK6, Homo sapiens, UniProt Q00534): 97.6%
SYK (Homo sapiens, UniProt P43405): 98.6%
CAMK2A (Homo sapiens, UniProt Q9UQM7): 104%
Aurora kinase B (AURKB, Homo sapiens, UniProt Q96GD4): 95.9%
STK3 (Homo sapiens, UniProt Q13188): 112%
PTK2 (Homo sapiens, UniProt Q05397): 97.7%
ZAP70 (Homo sapiens, UniProt P43403): 105%
BRAF (Homo sapiens, UniProt P15056): 94%
SRPK2 (Homo sapiens, UniProt P78362): 103%
HASPIN (Homo sapiens, UniProt Q8TF76): 62.3%

Series 2 — host: human; medium: microsomes or S9; concentration: 2 µM; time: 0.5 h; quantity: remaining compound
Cc1cc(NC(=O)NC(CCN(C)C)C(C)(C)C)n(C(C)(C)C)n1 (stereo not drawn): 95%
CC(C)C(C(=O)NC1CCN(C(=O)NC(C)(C)C)CC1)N(C)C (stereo not drawn): 69.3%
CC(NC(=O)Nc1ccc(F)cc1Br)c1cn[nH]c1 (stereo not drawn): 92.3%
COc1cccc(Nc2ccc(-n3ccnc3)nn2)c1: 95.1%
O=C1C=C(O)CC(c2ccc(Cl)c(Cl)c2)C1 (stereo not drawn): 0%
Clc1ccc(Cc2nc3c4cn[nH]c4ncn3n2)cc1: 96.7%
Cc1n[nH]c(-c2ccccc2)c1-c1nc2ccccc2n1Cc1ccccc1: 10.4%

Series 3 — effect on: ligand displacement; concentration: 10 µM; quantity: inhibition
Target: 5-hydroxytryptamine receptor 6 (HTR6, Homo sapiens, UniProt P50406)
UniProt P50406, sequence (whole entry, looked up): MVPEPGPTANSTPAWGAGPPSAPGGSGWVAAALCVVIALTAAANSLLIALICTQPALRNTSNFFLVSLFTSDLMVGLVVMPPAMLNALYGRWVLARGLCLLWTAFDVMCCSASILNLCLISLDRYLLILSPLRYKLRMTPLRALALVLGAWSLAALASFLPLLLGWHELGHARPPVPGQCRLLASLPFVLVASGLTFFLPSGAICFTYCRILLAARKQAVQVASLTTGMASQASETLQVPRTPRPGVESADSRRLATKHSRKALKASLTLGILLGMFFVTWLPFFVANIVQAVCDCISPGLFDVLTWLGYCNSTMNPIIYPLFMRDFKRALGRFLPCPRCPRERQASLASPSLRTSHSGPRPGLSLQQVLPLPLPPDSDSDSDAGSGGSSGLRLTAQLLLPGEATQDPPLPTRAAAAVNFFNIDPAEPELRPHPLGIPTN
CC1CCN(c2ccnc(NCc3cn(C)cn3)n2)CC1: 32.1%
N#CC1(c2ccccn2)CCN(Cc2cc(C(=O)N3CCCC3)c(=O)n3ccccc23)CC1: 2.79%
C[C@@H]1CN(c2cc(-c3n[nH]c4ccc(OC5(C)CC5)cc34)ncn2)C[C@H](C)O1: -13.6%
Nc1nc(NCc2ccccc2)nc(-c2cccc(CO)c2)n1: 26.7%
COc1cc(-c2cn(C3CCc4c(F)cccc4N(CC(F)(F)F)C3=O)nn2)ccc1-n1cnc(C)c1 (stereo not drawn): -4.64%
CN(C)c1ncnc(-c2ccc3nc(Nc4cc(CN5CCN(C(=O)CC(F)(F)F)CC5)ccn4)[nH]c3c2)c1Cl: 12.4%
CN1CCN(C(=O)C(C)(C)c2ccc(C(=O)Nc3cn4cc(-c5cc(C(C)(C)C)cc(C(C)(C)C)c5)ccc4n3)cc2)CC1: 30.8%
COc1cccc(NC(=O)c2nc3scc(CN(C)Cc4ccccc4)c3c(=O)[nH]2)c1: 3.76%
Cc1ccc(-c2cnc([C@@]3(O)CC[C@H](C(=O)O)C(C)(C)C3)s2)cc1Nc1cccc(C(F)(F)F)n1: 6.66%
NC(=O)c1ccc2nc(-c3ccc(C4(N)CCC4)cc3)c(-c3ccccc3)n2n1: 17.8%
Cc1ccccc1Oc1cc(-n2c(=O)cc(C(F)(F)F)[nH]c2=O)c2ccccc2c1Cl: 13%
CC(=O)N1CCC(c2ccc(C(=O)NC3=NCCN3)cc2C(F)(F)F)CC1: 0.267%
Cc1c(NC(=O)c2cc(C(N)=O)nc3cc(F)ccc23)c(C(F)(F)F)nn1Cc1ccc(C#N)cc1: -0.383%
NS(=O)(=O)c1cc(NC(=O)Cc2ccccc2)ccc1Oc1cccc(Cl)c1: 17.2%
CNC(=O)Nc1ccc2c(c1)CC[C@]21OC(=O)N(CC(=O)N(Cc2ccc(F)cc2)[C@@H](C)C(F)(F)F)C1=O: 32.6%
C[C@@H](c1cccc(C#N)c1)n1cc(Cl)cc(C(N)=O)c1=N: 7.75%
CCc1ccccc1C(=O)Nc1n[nH]c2c(C)c(F)c(C3C(C#N)=C(C)N(C)C(C)=C3C#N)cc12: 9.23%

Series 4 — cell line: mouse MPNST tumor cells; technique: high-content nuclear imaging; item: cell number; concentration: 10 µM; time: 12 h; setting: mean of 2 replicates; reference: plate mean; direction: higher = more cells; quantity: nuclei count
Oc1ccc(C2(c3ccccc3F)CCC(F)(F)CC2)cc1: -1.5 z-score
COc1ccc(NS(=O)(=O)c2sc3ccc(Cl)cc3c2C)cc1N1CCNCC1: 2.88 z-score
CN1CCN(C2=Nc3ccccc3Oc3ccc(Cl)cc32)CC1: 2.15 z-score
Nc1ccc(S(=O)(=O)c2ccc(N)cc2)cc1: 0.122 z-score
CO[C@H]1C[C@H](O[C@H]2[C@H](C)[C@@H](O[C@@H]3O[C@H](C)C[C@H](N(C)C)[C@H]3OC(C)=O)[C@@H](C)C[C@@]3(CO3)C(=O)[C@H](C)[C@@H](OC(C)=O)[C@@H](C)[C@@H](C)OC(=O)[C@@H]2C)O[C@@H](C)[C@@H]1OC(C)=O: 2.45 z-score
COC(=O)C1=C(C)NC(C)=C(C(=O)OC(C)C)C1c1cccc2nonc12 (stereo not drawn): 0.776 z-score and 5.17 z-score
O=C(Oc1cccc2cccnc12)c1ccccc1: -0.843 z-score
CC(C)(C)NCC(O)COc1cccc2c1CCC(=O)N2 (stereo not drawn): 0.192 z-score
NS(=O)(=O)c1cc(C(=O)O)c(NCc2ccco2)cc1Cl: 0.81 z-score and 1.04 z-score
CC(=O)OCC(=O)[C@@]1(O)[C@H](C)C[C@H]2[C@@H]3CCC4=CC(=O)C=C[C@]4(C)[C@@]3(F)[C@@H](O)C[C@@]21C: 2.65 z-score
C=C[C@@]1(C)CC(=O)[C@]2(O)[C@@]3(C)[C@@H](O)CCC(C)(C)[C@@H]3[C@H](O)[C@H](OC(C)=O)[C@@]2(C)O1: 2.04 z-score

A few entries again (series 2):
COc1cccc(Nc2ccc(-n3ccnc3)nn2)c1: 95.1%
O=C1C=C(O)CC(c2ccc(Cl)c(Cl)c2)C1 (stereo not drawn): 0%
Clc1ccc(Cc2nc3c4cn[nH]c4ncn3n2)cc1: 96.7%
Cc1n[nH]c(-c2ccccc2)c1-c1nc2ccccc2n1Cc1ccccc1: 10.4%
